Published values gathered from unrelated publications.
A part holds a random share of what one study measured.

Series 1
Target: RNA binding protein fox-1 homolog 2, RRM domain, GST-SBP tag (RBFOX2, Homo sapiens, UniProt O43251-10, residues 100-194)
Method: RNA Bind-n-Seq
Form: RNA
Sample: in vitro
Concentration: 365 nM
Setting: natural RNA segment, single round, ends assumed
Baseline: no-protein control
Direction: higher = stronger binding
Target sequence (chain): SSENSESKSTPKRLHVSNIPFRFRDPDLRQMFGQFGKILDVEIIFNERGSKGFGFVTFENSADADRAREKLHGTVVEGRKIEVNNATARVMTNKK
| Strand | RBNS enrichment (R) |
| --- | --- |
| GGGAGUUCUACAGUCCGACGAUCUUGAAGAGGCAGAGUGAUUUAGAGAACGAAAUCAGAACCUGGGAACACCAUGACUACUUCAUUUCUAGCUAAAUCAGAACUGCCUUCAACACUGGAGAAAGGGAGAAGUAUGGAAUUCUCGGGUGCCAA | 0.433 |
| GGGAGUUCUACAGUCCGACGAUCUUUAUGCCCGGUACACACAACAUAUGUUCAGUUGUUCUUAACUACUUUUGUCAUUUGUUUUUUGGAGUAGUUUUGAAAAGUGUCUAUAUUGAGUACACUAUUGCUGUCCAUGGAAUUCUCGGGUGCCAA | 0.755 |
| GGGAGUUCUACAGUCCGACGAUCUUUCUGACACUAGAAUGCAACAGAUUGGAAACUUUUUGUGUAAAAUGAAAAAAACAAAGUGCUGGUUUUUUUUUUUUUUCUGUGAAGGUCUUCAGUGUUUUGCUUGUUCAUGGAAUUCUCGGGUGCCAA | 0.948 |
| GGGAGUUCUACAGUCCGACGAUCCUGCCCUCUCUGAGCCUCAGUGUUUGGAGGGCCCCAAAGAAUUCCCGUCUUGUGGGGGAGUUUUCUUGCCUAAGAUUUAAUGCAGUUCUCUCUACCCAGUGGGCGCUGCUUGGAAUUCUCGGGUGCCAA | 0.226 |

Series 2
Target: RING finger protein unkempt homolog, zinc fingers 1-6, GST-SBP tag (UNK, Homo sapiens, UniProt Q9C0B0, residues 30-357)
Method: RNA Bind-n-Seq
Form: RNA
Sample: in vitro
Concentration: not given
Setting: RNA with constant flanks, ends assumed
Baseline: input RNA pool
Direction: higher = stronger binding
Target sequence (chain): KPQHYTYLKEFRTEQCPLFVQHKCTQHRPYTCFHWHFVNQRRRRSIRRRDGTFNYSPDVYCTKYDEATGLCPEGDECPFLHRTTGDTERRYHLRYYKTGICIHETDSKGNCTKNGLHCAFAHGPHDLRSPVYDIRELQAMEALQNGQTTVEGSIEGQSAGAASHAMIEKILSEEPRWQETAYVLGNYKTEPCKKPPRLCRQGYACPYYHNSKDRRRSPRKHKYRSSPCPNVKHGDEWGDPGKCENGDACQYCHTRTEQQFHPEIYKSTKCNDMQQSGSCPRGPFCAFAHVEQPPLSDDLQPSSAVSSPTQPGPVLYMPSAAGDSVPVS
| Strand | bound/input enrichment [ratio] |
| --- | --- |
| GGGAGUUCUACAGUCCGACGAUCCGAGAUGCCCGUUCUUACAACCGGUUUCAAAUCGCCACUGUCACCGAAAAAGGUGUUGAAACCGAGGGACCAUUGUCUACAGAGACCAACUGGGAUAUUGCCCACAUGAUCAGUGGCUUUCAACAGAGGAUUGAGCAUCA | 0.0879 |
| GGGAGUUCUACAGUCCGACGAUCUGGCAAGACUACCAUCCUGUACAAACUGAAGUUGGGGGAGAUUGUCACCACCAUCCCCACUACCGGUGAGUCCAGGACAAGGAGCGGGAAGCAGGAAUGUCGCUUUGAGCCUUGUCGGGGCAACAGAGGAUUGAGCAUCA | 0.0788 |
| GGGAGUUCUACAGUCCGACGAUCCUGUUGGGGUGGGUAUAAAAGAUGGGGUCUGUAAAAUCUUUCUUUCUUAGAAAUUUAUUUCCCCGUUCUGUAGAAAUGGUUGUAUUAGAUGUUCUCUAUCAUUUAAUAAUAUACUUGUGGCAACAGAGGAUUGAGCAUCA | 0.825 |
| GGGAGUUCUACAGUCCGACGAUCGCUGAACCUGAUAUUAUUGAACAACUGGUGGAAUUUGCUUAUACUGCUAGAAUUUCCGUGAACCGCAACAAUGUUCAGUCUUUGCUGGAUGCAGCAAACCAAUAUCAGAUUGAACCUGUGCAACAGAGGAUUGAGCAUCA | 0.26 |

Series 3
Target: Histone acetyltransferase KAT6A, winged helix 2, GST fusion (KAT6A, Homo sapiens, UniProt Q92794, residues 85-181)
Method: protein binding microarray
Form: double-stranded DNA, one strand shown
Sample: in vitro
Concentration: not given
Setting: 8-mer, flanks averaged, mean of 2 arrays, mostly near background
Baseline: not given
Direction: higher = stronger binding
Target sequence (chain): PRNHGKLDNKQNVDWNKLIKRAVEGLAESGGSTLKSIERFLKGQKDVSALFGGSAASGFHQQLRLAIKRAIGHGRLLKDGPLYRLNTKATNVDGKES
| Strand | E-score |
| --- | --- |
| CAGCTGCC | 0.115 |
| AGACCAAT | -0.0831 |
| ACGCTGAC | 0.146 |
| GATTAAAC | 0.108 |
| CCATAAGG | -0.111 |
| AAACAGAA | 0.165 |
| ATCCCCAA | -0.0887 |

Other studies, line by line
| Molecule | target | assay | test system | conditions | scale | endpoint | result |
| --- | --- | --- | --- | --- | --- | --- | --- |
| PhoQ, residues 284 288 289 292 302 303 SSLVEF | PhoP, residues 12 14 15 18 19 NMSSL (Escherichia coli, UniProt P23836) | Sort-seq, item: YFP reporter | E. coli | PhoQ-PhoP variant library, added: 10 µM Mg2+ | baseline: high Mg2+ state, higher = stronger signaling | fold induction | 6.1 |
